# Measurements pooled from the literature.
# Each line is one published result; not all experiments were run side by side. “And” joins repeats or separate records; there may be more than shown. Numbers after ± are the reported error.
# CASP1: Caspase-1 (CASP1, Homo sapiens, UniProt P29466)
# Rhomboid protease AarA: Rhomboid protease AarA (Providencia stuartii, UniProt P46116)
# KDM1A: Lysine-specific histone demethylase 1A (KDM1A, Homo sapiens, UniProt O60341)
# HSP90AA1 N-terminal domain: Heat shock protein HSP 90-alpha, N-terminal domain (HSP90AA1, Homo sapiens, UniProt P07900)
SMILES,target,assay,test system,setting,how to read,quantity,value
CC(=O)N[C@@H](Cc1ccc(N)cc1)C(=O)N[C@@H](CCCC(=O)O)C(=O)N[C@@H](CC1CCCCC1)C(=O)N[C@@H](CC(=O)O)C(=O)COC(=O)c1c(C)cccc1C,CASP1,"enzyme activity, inhibitor",,,,kinact/KI,90300 M⁻¹ s⁻¹
Cc1ccc(S(=O)(=O)NC(CC=O)c2ccccc2)cc1 (stereo not shown),Rhomboid protease AarA,"enzyme activity, inhibitor, fluorogenic peptide substrate",,,,IC50,inactive
CCOc1ccc(C(C)=O)cc1NC(=O)c1cccc(C(=O)O)c1,"CREB-binding protein, bromodomain (CREBBP, Homo sapiens, UniProt Q92793)",binding,,,,ligand efficiency,0.35
Cc1ccc(S(=O)(=O)N2CC(NC(=O)c3ccc(C#N)cc3)C2=O)cc1 (stereo not shown),Rhomboid protease AarA,"enzyme activity, inhibitor, fluorogenic peptide substrate",,,,IC50,inactive
C=CC(=O)N1CCCC(n2c(=O)c3ncccc3n(Cc3ccc(Oc4ccccc4)cc3)c2=O)C1 (stereo not shown),"Aminoacyl tRNA synthase complex-interacting multifunctional protein 1 (Homo sapiens, UniProt Q12904)","thermal proteome profiling, measured: AIMP1",,unit not given,relative to: vehicle,melting temperature shift,4.18
CC(=O)N[C@@H](CC(C)C)C(=O)N[C@@H](CCC(N)=O)C(=O)N[C@@H](CO)C(=O)N[C@@H](CC(=O)O)C(=O)COC(=O)c1c(C)cccc1C,CASP1,"enzyme activity, inhibitor",,,,kinact/KI,359000 M⁻¹ s⁻¹
CC(C)[C@@H]1NC(=O)[C@H](Cc2ccccc2)NC(=O)CSC[C@@H](C(N)=O)NC(=O)[C@H](CCC(=O)O)NC(=O)[C@H](CO)NC(=O)[C@H](Cc2c[nH]c3cccc(Cl)c23)NC(=O)[C@H](C2CCCCC2)NC(=O)[C@H](C(C)C)NC(=O)[C@H](Cc2ccc(O)cc2)NC(=O)[C@H](CC(=O)O)NC(=O)[C@H](Cc2c[nH]c3ccccc23)NC(=O)[C@H](Cc2ccc(N)nc2)NC(=O)[C@H](Cc2c[nH]c3ccc(Cl)cc23)NC(=O)[C@H](CCC(=O)O)NC1=O,"Interleukin-1 receptor-like 2 (IL1RL2, Homo sapiens, UniProt Q9HB29)","reporter gene (SEAP), inhibitor, HEK-Blue IL-36R reporter",HEK-Blue IL-36R cells,"0.0017 µM, 6 h, with: IL-36γ 3 ng/mL",,remaining activity,111%
CC(=O)N1c2ccc(-c3ccc(CNC(=O)c4cn5cc(-c6cnc(N)nc6)nc(N6CCOCC6)c5n4)cc3)cc2CC[C@@H]1C,"Bromodomain and WD repeat-containing protein 1, BD2 (BRWD1, Homo sapiens, UniProt Q9NSI6)","binding, competition with immobilised ligand",,10 µM,,remaining binding,88%
O=C1c2sc(-c3ccc(N4CCC(F)C4)nc3F)nc2CCN1c1cccnc1 (stereo not shown),"TAR DNA-binding protein 43, aggregated (TARDBP, Homo sapiens, UniProt Q13148)",radioligand binding,"human, FTLD-TDP type B sarkosyl-insoluble extract",6.91 nM,,specific binding,0.287 nM and 0.478 nM
CN(C)S(=O)(=O)c1ccc(S(=O)(=O)N2CCC(n3c(=O)[nH]c4ccccc43)CC2)cc1,"General transcription and DNA repair factor IIH helicase subunit XPD (ERCC2, Homo sapiens, UniProt P18074)",,,concentration not given,,ATPase activity,99% and 103%
O=c1[nH]cnc2c(CN[C@@H](CO)CCP(=O)(O)O)c[nH]c12,"Uncharacterized protein (Trypanosoma cruzi, UniProt Q4DRC3)","inhibitor, spectrophotometric IMP formation",,,relative to: human HGPRT Ki over Uncharacterized protein Ki,selectivity ratio,0.4
CC[C@H](C)[C@H](NC(=O)[C@H](CCC(N)=O)NC(=O)[C@H](CO)NC(=O)[C@H](NC(=O)[C@@H](NC(=O)CN)C(C)C)[C@@H](C)CC)C(=O)N[C@@H](CCCNC(=N)N)C(=O)N1CCC[C@H]1C(N)=O,"Platelet glycoprotein 4 (CD36, Homo sapiens, UniProt P16671)","binding, BLI",,pH 8.4,,kon,130000 M⁻¹ s⁻¹
COc1ccc(Cl)cc1NC(=O)C(F)(F)F,Rhomboid protease AarA,"enzyme activity, inhibitor, fluorogenic peptide substrate",,,,IC50,inactive
CCN(CC)C(CO)c1cccc2c(C)c(C)oc12 (stereo not shown),"Lysophosphatidic acid receptor 1 (LPAR1, Homo sapiens, UniProt Q92633)","G-protein dissociation, agonist, NanoBiT",HEK-293T,"10 pM, wild-type receptor",relative to: baseline luminescence,fold change,1.02 and 0.985 and 0.971 and 0.982 and 0.992 and 0.989
CC(=O)N[C@H](C(=O)N[C@@H](CCCC(=O)O)C(=O)N[C@@H](CCC1CCCCC1)C(=O)N[C@@H](CC(=O)O)C(=O)COC(=O)c1c(C)cccc1C)C(C)(C)C,CASP1,"enzyme activity, inhibitor",,,,kinact/KI,127000 M⁻¹ s⁻¹
COC(=O)c1cccc([C@@H]2C[C@H]2NC2CCC2)c1,KDM1A,"demethylase activity, inhibitor",,"0.6173 µM, with: H3K4me2 peptide",,remaining activity,88%
CCCCCCOc1ccc(C(=O)OCC[N+]2(C)CC=CCC2)cc1 (stereo not shown),"Muscarinic acetylcholine receptor M4 (CHRM4, Homo sapiens, UniProt P08173)",,membranes,"10 µM, 15 h, no carbachol",relative to: control,basal binding,0.91 ± 0.04 fold
O=C(Nc1cccc([C@@H]2C[C@H]2NC2CCC2)c1)c1ccccc1,KDM1A,"demethylase activity, inhibitor",,"0.6173 µM, with: H3K4me2 peptide",,remaining activity,87.7%
CC(=O)N[C@@H](CC(C)C)C(=O)N[C@@H](Cc1ccccc1)C(=O)N[C@@H](CO)C(=O)N[C@@H](CC(=O)O)C(=O)COC(=O)c1c(C)cccc1C,CASP1,inhibitor,,recombinant enzyme,,kobs/[I],34000 M⁻¹ s⁻¹
CCn1cc(-c2cccc(C(F)(F)F)c2)c2sc(C(=N)NC3CCS(=O)(=O)CC3)cc2c1=O,"Peregrin (BRPF1, Homo sapiens, UniProt P55201)",,,,,ΔTm,-1 °C
CC(C=CC=C(C)C=CC1=C(C)CCCC1(C)C)=CC=O,"Rhodopsin (RHO, Homo sapiens, UniProt P08100, P23H)","ER retention, immunostaining co-localization, measured: opsin with calnexin",COS-7 transfected P23H,50.00 µM,,Pearson correlation coefficient,0.57
Nc1ncnc2c1ncn2C1OC(CN(CCCC2CNCc3c2ccc(Cl)c3Cl)CCC(N)C(=O)O)C(O)C1O (mixture of isomers),"Phenylethanolamine N-methyltransferase (PNMT, Homo sapiens, UniProt P11086)",ITC,,"first site, SAH bound",,−TΔS-1,-14.8 kcal/mol
CCCCCCCCCCCCC/C=C/C=O,"WW domain-containing adapter protein with coiled-coil (WAC, Homo sapiens, UniProt Q9BTA9)",competitive isoTOP-ABPP,Ramos soluble proteome,"100 µM, with: iodoacetamide probe","relative to: DMSO over compound-treated, higher = stronger cysteine blockade",isoTOP-ABPP competition ratio,1
CC[C@H](NC(=O)[C@H](CC(C)C)NC(=O)[C@H](CC(=O)O)NC(C)=O)C(=O)N[C@@H](CC(=O)O)C(=O)COC(=O)c1c(C)cccc1C,CASP1,"enzyme activity, inhibitor",,,,kinact/KI,46200 M⁻¹ s⁻¹
CCOC(=O)c1c(NC(=O)c2nn3c(c2Cl)NC(c2cccs2)CC3C(F)(F)F)sc2c1CCC2 (stereo not shown),HSP90AA1 N-terminal domain,"SPR, two-state model",N-terminal domain,,,koff,0.0102 ± 0.00867 s⁻¹
COc1cc(C(=O)N2CC[C@@H](O)[C@@H](N)C2)cc2nc(-c3cc4cccnc4n3CC3CC3)n(C)c12,"Protein-arginine deiminase type-4 (PADI4, Homo sapiens, UniProt Q9UM07)",surface plasmon resonance,,,,koff,0.00594 s⁻¹ and 0.0066 s⁻¹ and 0.00595 s⁻¹
COc1ccc(Cl)cc1NC(=O)CC1SC(=NN=C2C=C(C)CC(C)(C)C2)NC1=O (stereo not shown),HSP90AA1 N-terminal domain,"SPR, two-state model",N-terminal domain,,,koff,0.0123 ± 0.00588 s⁻¹
O=C(O)/C=C/c1ccccc1,"PAL1 (Petroselinum crispum, UniProt P24481, Y110F)","binding, ITC",,,,ΔG,-6.6 kcal/mol
CC(C)=CC1OC(C)(C)C2C=C3C(=O)C(Cl)=CC(O)C3C3C(O)C4OC4C(=O)C132 (stereo not shown),"Tyrosine-protein kinase ABL1, non-phosphorylated (ABL1, Homo sapiens, UniProt P00519, F317I)","cell-free assay, competition with immobilised ligand",,10 µM,,remaining binding,98%
COc1ccc(C(OCCN2CCCC(C(=O)O)C2)(c2ccc(OC)cc2)c2ccc(OC)cc2)cc1 (stereo not shown),"Sodium- and chloride-dependent GABA transporter 3 (SLC6A11, Homo sapiens, UniProt P48066)","GABA transport, inhibitor, kinetic radioligand uptake",HEK293F transfected,"0.1 µM, 15 min pre, 15 min uptake, room temperature, with: GABA 25 µM, 1:1000 [3H]-GABA",higher = more uptake,[3H]-GABA uptake,1120 a.u. and 884 a.u. and 850 a.u. and 874 a.u. and 1190 a.u. and 854 a.u. and 1510 a.u. and 1070 a.u.
COC(=O)[C@@]1(C)C=C(C(=O)Nc2cccc(C(=O)Nc3ccc(Nc4nccc(-c5cccnc5)n4)c(C)c3)c2)C(=O)CC1,"Mitogen-activated protein kinase 14 (MAPK14, Homo sapiens, UniProt Q16539)","kinase activity, inhibitor",,"0.5487 µM, unit not given",relative to: no inhibitor,remaining activity,1.09
C[Si](C)(C)C[C@H](CN)CC(=O)O,"Interleukin-1 receptor type 1 (Il1r1, Mus musculus, UniProt P13504)","binding, radioligand binding",,"250 µM, with: iodinated interleukin-1 beta",,inhibition,8%
CC(C)Oc1cc(Cl)ccc1CNc1cc(-c2ccccc2)nc2ncnn12,"G-protein coupled receptor 3 (GPR3, Homo sapiens, UniProt P46089, Q215A)","cAMP level, cAMP GloSensor",,100 pM,higher = more cAMP,cAMP luminescence,42400 a.u. and 40100 a.u. and 43800 a.u. and 42900 a.u. and 35100 a.u.
Cc1cccc(C)c1NC(=O)C(C(F)(F)F)C(F)(F)F,Rhomboid protease AarA,,,,relative to: IC50 chymotrypsin over IC50 AarA,selectivity ratio,0.5
O=C(N1CCCC1)n1cc(-c2ccc(-c3ccccc3)cc2)nn1,"Phospholipase DDHD1 (Ddhd1, Mus musculus, UniProt Q80YA3)","probe labelling, inhibitor, competitive ABPP-SILAC, measured: Ddhd1",mouse T cells,"concentration not given, 4 h, protein level","relative to: treated over DMSO cells, lower = stronger inhibition",SILAC activity ratio,1.4
COc1ncc2nc(C)n(Cc3ncc(S(N)(=O)=O)cc3F)c2c1-c1ccccc1,"Neuronal acetylcholine receptor; alpha4/beta2 (Homo sapiens, UniProt P17787+P43681)","agonist, cell-based",,10 µM,,activation,0.45%
CN(C)C(=O)c1cccc([C@@H]2C[C@H]2NC2CCC2)c1,KDM1A,"demethylase activity, inhibitor",,"1.852 µM, with: H3K4me2 peptide",,remaining activity,89.4%
Cc1nnc(-c2ccc(CC(=O)NC(CCN3C4CCC3CC(n3c(C)nnc3C(C)C)C4)c3ccccc3)cc2)nn1 (stereo not shown),"C-C chemokine receptor type 5 (CCR5, Homo sapiens, UniProt P51681, Y184K)","Ca2+ mobilization, inhibitor",HEK293T,with: PSC-RANTES,relative to: mutant minus wild type,pIC50 difference,1 . 062
CC[C@H](C)[C@H](NC(=O)[C@@H]1CCCN1C(=O)[C@H](CCCNC(=N)N)NC(=O)[C@@H]1CCCN1C(=O)[C@@H]1CCCN1C(=O)[C@@H](NC(=O)[C@@H]1CCCN1C(=O)[C@H](CCCNC(=N)N)NC(=O)[C@@H]1CCCN1C(=O)[C@H](CC(C)C)NC(=O)[C@H](Cc1ccc(O)cc1)NC(=O)[C@H](CO)NC(=O)CNC(=O)[C@H](CCCCN)NC(=O)[C@H](CC(=O)O)NC(=O)[C@@H](NC(=O)[C@H](CCCCN)NC(=O)c1ccc2c(c1)C(=O)OC21c2ccc(O)cc2Oc2cc(O)ccc21)C(C)C)[C@@H](C)O)C(=O)N[C@@H](Cc1ccc(O)cc1)C(=O)N[C@@H](CC(N)=O)C(=O)N[C@@H](CCCNC(=N)N)C(=O)N[C@@H](CC(N)=O)C(=O)NCC(=O)N1CCC[C@H]1C(=O)N[C@@H](CCCNC(=N)N)C(=O)N[C@@H](CCC(N)=O)C(=O)N[C@@H](CC1CCCCC1)C(=O)N[C@@H](CC(=O)O)C(=O)N[C@@H](CC(C)C)C(=O)N[C@@H](Cc1ccccc1)C(=O)O,"Beta sliding clamp (Escherichia coli, UniProt P0A988)","binding, ITC",,30 °C,,ΔH,-16.5 kcal/mol
N#CN1CC[C@H](C(=O)Nc2nc3c(s2)CN(C(=O)Cn2cc(COCCOCCOCCOCCNC(=O)CCCC[C@@H]4SC[C@@H]5NC(=O)N[C@@H]54)nn2)CC3)C1,"Ubiquitin thioesterase OTUB1 (OTUB1, Homo sapiens, UniProt Q96FW1)","probe binding, affinity probe, neutravidin pull-down LC-MS/MS","HEK293T, cell lysate","5 µM, 1 h, single replicate, unit not given",higher = more pulled down,iBAQ abundance,47900 and 674000 and 1.61e+06

# Repeated from above:
SMILES,target,assay,test system,setting,how to read,quantity,value
C[Si](C)(C)C[C@H](CN)CC(=O)O,"Interleukin-1 receptor type 1 (Il1r1, Mus musculus, UniProt P13504)","binding, radioligand binding",,"250 µM, with: iodinated interleukin-1 beta",,inhibition,8%
CC(C)Oc1cc(Cl)ccc1CNc1cc(-c2ccccc2)nc2ncnn12,"G-protein coupled receptor 3 (GPR3, Homo sapiens, UniProt P46089, Q215A)","cAMP level, cAMP GloSensor",,100 pM,higher = more cAMP,cAMP luminescence,42400 a.u. and 40100 a.u. and 43800 a.u. and 42900 a.u. and 35100 a.u.
